Measured values from different studies.
Numbered parts are unrelated; each lists some results of a single study. Positions count from the first letter of the parent shown.

Set 1 — method: RNA Bind-n-Seq; form: RNA; matrix: in vitro; concentration: 100 nM; reference: input RNA pool; direction: higher = stronger binding
Target: RING finger protein unkempt homolog, zinc fingers 1-6, SBP tag (UNK, Homo sapiens, UniProt Q9C0B0, residues 30-357)
UniProt Q9C0B0, sequence (30-357, looked up): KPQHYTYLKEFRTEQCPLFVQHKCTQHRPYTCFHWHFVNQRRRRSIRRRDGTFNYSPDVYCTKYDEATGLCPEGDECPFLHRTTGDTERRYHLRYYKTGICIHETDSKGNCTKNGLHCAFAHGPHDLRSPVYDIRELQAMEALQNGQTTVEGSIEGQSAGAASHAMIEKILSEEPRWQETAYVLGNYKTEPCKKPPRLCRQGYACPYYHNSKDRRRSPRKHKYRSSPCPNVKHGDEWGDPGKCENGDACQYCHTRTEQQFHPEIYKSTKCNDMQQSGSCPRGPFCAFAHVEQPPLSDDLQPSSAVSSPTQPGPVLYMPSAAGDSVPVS
Setting: RNA with constant flanks, vertebrate orthologous sites, ends assumed
Shared flanks, not repeated: GGGAGUUCUACAGUCCGACGAUC … CAACAGAGGAUUGAGCAUCA
Strand | bound/input enrichment [ratio]
UUUGUGGGGAUCGGGGGGUGGGAAGAAGAUGUAUGGAUGUUAUUGGCAUUUUUAAAUGUUCAGAGGUUUUUGUUUUGUUUUGUUUUGUUUUGUUUUGUUUUGUUUCUUCUGUUUUGUUUU | 1.03
CCUCUAGUUCUUAAGAACCAACACUCUUAAAAGAUUUAGGAAGAAGUUUACGACAUAAUCUAGUUUACGAAGAAAACUUGUGCUAGAAUACUUUUUAAAAAUAAUUUUUGAAUACCAUUA | 0.532
AAGAACUCUUGCAGUCUUAGAUGUUAUAAAAAAUAUGUAUAUCUGAAUUGUAAGAGUUGUUAGCACAGGGUUUUUUUUUUUUUAAGCACUUGUUUUGGGUACAAGGCAUGUCUGAAAUUU | 0.32
UUACAAUCUUAAAUCGGUAUUUUCAAACAGUAGGAACUCUCUUUUUCUUUUUUUACAGUUCAGUGUAUCUGGUUUCUACAUGGAAGACUAAACUCAUGCUUCUUGCUAAUUGUGGUUUUU | 0.366
AUGGCACCCCCUGUGAGAGGGAGUGGGGGAAGCCCAGGAUGACCCUCAGUUGUUCCAAUCCAGUAUUUUUUCCUUAAAAAAAAAAUUACUGUAUUUAUUAUGACGAUGGUGACUCCCCAG | 0.291
CAUCAGGUUUCUAGCUUCACAUUCCUGCAUAUUGCAUUUGAGAACAUGAAAGGUACAAUUAUACCCUUUCUUAAAGAUGACUUAAAUUCUACAGUAUGUCUUGGUCACUUAAAUAAAACC | 0.797
GGCUUAUUGGUAGAGGCAGAAGGAUCAGAAGUUCAAGAUCAUCCUCAGCUACAUGAGACUAAAAUGUGGGGGCAUAAUGAAGCUCAAAAAGGUCAAGGGAAUUGAGGUACUCUGUAAAUU | 0.482
AUAGGAACAGCAUAGGCUGUUUGAGCUUUGGGGAAUGAGCUUUGCUUUUUUGUAUUUAAAUAGGAUACUUUUAUAUGAUGGGUGCUUUUGAGUGUGAUUGAAGCAGGCUCCCAUUUCAGA | 1.11
GUGCAAGGAGAUUAUCCCAACUAGUGAAUUUAUUAACAGUAAGUUGACAGCAAAAGCAAAUAGGCAGCUUCAAGACCCUUUAGUCAUCAUGACAGGAAACAUCCCAACAUGGCUCACUGA | 1.22
ACCUUUUGUAGGCCAAAUACCCUCCUUCUACUGCUUCUGCCAACUGGAAGCACAGAAAACUAGAAUUUCAUUUUAUUUUGUUUAAAAAAAAAAAAUUGAUUUCUUGUAACAUCCACUAGG | 0.498
CAUGUAGUUUGUUUUUAAUUUCAAGCAAAUCUUCUUGUACUUGAAUGUGCCCUGUUUUGUUAGCACACCUAGACUUGCUGUAACUGUACUCAUGUCCCAGUAUGUACGUUCUUUCUAUGA | 1.12

Set 2 — method: Sort-seq; item: YFP reporter; matrix: E. coli; setting: PhoQ-PhoP variant library; with: 10 µM Mg2+; reference: high Mg2+ state; direction: higher = stronger signaling
Substance: PhoQ, residues 284 288 289 292 302 303 SNGLAW
target | fold induction
PhoP, residues 12 14 15 18 19 LHTVL (Escherichia coli, UniProt P23836) | 10.4
PhoP, residues 12 14 15 18 19 NQCAL (Escherichia coli, UniProt P23836) | 12.2
PhoP, residues 12 14 15 18 19 TQAML (Escherichia coli, UniProt P23836) | 11.9

Set 3 — target: CCNB2, cyclin fold, Cln2 fusion (human); method: yeast growth competition, sequencing; matrix: yeast; setting: strong parent motif; reference: not given; direction: higher = stronger binding
Starting sequence: PKMYT1 docking peptide (human); SFEPRNLLSLFED
Substitution | normalised enrichment score
P4M | 0.404
E12D | 1.09
F2H | -0.198
E12G | -0.0101
P4I | -0.379
F2V | 1.59
D13L | 0.875
L7T | -0.626
S9P | 2.39
R5D | -0.267
S9V | 1.07
D13S | 1.2
L8D | -0.299
L7M | -0.58

Set 4 — method: DHFR PCA, deep sequencing; matrix: yeast; with: (+)-ABA 0.11 µM; reference: wild-type fitted maximum; direction: higher = stronger binding
Target: ABI1, truncated, D143A, DHFR fusion (Arabidopsis thaliana)
Setting: methotrexate growth selection, single substitutions
Starting sequence: PYL1, truncated, DHFR fusion (Arabidopsis thaliana); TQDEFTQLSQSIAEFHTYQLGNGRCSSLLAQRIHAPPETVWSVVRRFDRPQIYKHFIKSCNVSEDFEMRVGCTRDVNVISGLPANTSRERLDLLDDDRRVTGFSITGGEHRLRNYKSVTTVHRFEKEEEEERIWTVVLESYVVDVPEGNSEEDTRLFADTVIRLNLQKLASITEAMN
Substitution | relative binding score [%]
G107S | 33.1
L8M | 1.31
E139C | 13.7
L20M | 29.7
N114F | -7.41
L91K | -3.27
Q51V | 5.81
E151I | 32.9

For quick reference, copied from above (set 3):
Substitution | normalised enrichment score
P4I | -0.379
P4M | 0.404
S9P | 2.39
E12G | -0.0101
L8D | -0.299
